Measurements from different studies.
Compare with care: the assays were run in different laboratories. Several values in a cell are separate wells, animals, samples, runs or records. ± marks the error that the study gave. Values after ≈ are worked out from the molar mass of the structure shown.

SMILES	test	system	setting	how to read	endpoint	result
C=C(NC(=O)c1csc(-c2nc3c(cc2O)-c2nc(cs2)C(=O)NC(C(C)O)C(=O)NC(=C(C)OC)c2nc(cs2)C(=O)NC2c4nc(cs4)C(=O)NC(COC(=O)c4c5c6c(cccc6n4O)COC(=O)C(OC4CC(C)(O)C(N(C)C)C(C)O4)C2OC5)c2nc-3cs2)n1)C(N)=O (stereo not shown)	–	ICR mice, Streptococcus pneumoniae ATCC 49169 infected, immunocompromised, blood	intravenous, 4 mg/kg/day twice daily	–	Cmax	147 ng/mL
Cc1nc(N)nc2c1C(=O)N[C@@H](c1ccc(F)cc1-c1cccc(O[11CH3])n1)C2	ex vivo biodistribution	mice, MDA-MB-231 subcutaneous xenograft, bone	60 min post-injection, baseline, vehicle pre-treatment	–	tracer uptake	8.6 ± 0.9 %ID
O=C(c1ccc(-c2ccccc2)cc1)N1CCCCC1	–	pooled human liver microsomes	2 µM, pH 7.4	–	elimination rate constant	8.33e-05 s⁻¹
COc1ccc2c(c1)O[B-]1(c3ccccc3)OC(=O)C(c3ccccc3)=N[N+]1=C2 (stereo not shown)	–	toluene	–	–	fluorescence emission maximum	503 nm
CCc1cnc(NC(=O)c2cc(S(=O)(=O)N3CCOCC3)ccc2N(C)C2CCCC2)s1	–	mouse, blood	10 mg/kg, 3 doses	–	Monocytes differential count	9%
CC(=O)N([O-])CCCCCNC(=O)CCC(=O)N([O-])CCCCCNC(=O)CCC(=O)N([O-])CCCCCN.[89Zr+4]	radio-TLC	aqueous buffer	1 d, pH 7.2, 37 °C, 89Zr-labelled complex, with: CuCl2 10-fold excess	–	intact complex	98.6 ± 0.6%
CCN(CC)c1ccc2c(c1)O[B-]1(c3c(C)cccc3C)OC(=O)C(c3ccccc3)=N[N+]1=C2 (stereo not shown)	–	toluene	–	–	fluorescence lifetime	0.45 ns
CN(C)C(=O)CNC(=O)c1ccc(C2CCCCC2)cc1	liver microsome stability	cynomolgus liver microsomes	1 µM	–	hepatic clearance	36 mL/min/kg
COc1cccc(OC)c1-c1cc(C(=O)NC2(C(=O)O)C3CC4CC(C3)CC2C4)nn1-c1ccc(C(=O)N(C)CCCN(C)C(=O)[C@H](CCCCNC(=O)[C@H](CC(C)C)NC(=O)C2OC2C(=O)O)NC(=O)CN2CCN(CC(=O)[O-])CCN(CC(=O)[O-])CCN(CC(=O)[O-])CC2)cc1C(C)C.[177Lu+3] (mixture of isomers)	–	mouse, HT-29 xenograft	168 h post injection, biodistribution	reference: tumour over bone uptake	tumour-to-bone ratio	30
CC(C)CC(=O)Nc1ccc(C2CCCCC2)cc1	liver microsome stability	cynomolgus liver microsomes	1 µM	–	hepatic clearance	39 mL/min/kg
CCCCN1C(=O)c2cccc3c(NCCCN4CCOCC4)ccc(c23)C1=O	–	DMF	–	–	fluorescence lifetime	6.2 ns
O=C(c1ccc(C2CCCCC2)cc1)N1CCC(F)CC1	liver microsome stability	cynomolgus liver microsomes	1 µM	–	hepatic clearance	41 mL/min/kg
CC(C)(O)Cn1nc(-c2ccccc2)c2c(Cl)c(-c3ccccc3)nnc21	–	mouse juvenile P6, plasma	intraperitoneal, 10 mg/kg	–	AUC	5.87 µM·h
COc1cccc(OC)c1-c1cc(C(=O)NC2(C(=O)O)C3CC4CC(C3)CC2C4)nn1-c1ccc(C(=O)NCCNC(=O)[C@H](CCCCNC(=O)[C@H](CC(C)C)NC(=O)C2OC2C(=O)O)NC(=O)CN2CCN(CC(=O)[O-])CCN(CC(=O)[O-])CCN(CC(=O)[O-])CC2)cc1C(C)C.[177Lu+3] (mixture of isomers)	–	mouse, HT-29 xenograft	4 h post injection, biodistribution	reference: tumour over kidney uptake	tumour-to-kidney ratio	1.35
O=C(CN1CN(c2ccccc2)C2(CCN(C(=O)c3ccc4[nH]ncc4c3)CC2)C1=O)N(CCO)CC(F)(F)F	–	human liver microsomes	–	–	CLint	54 µL/min/mg protein
Cc1noc(C)c1Cn1cc(N2C(=O)CN(Cc3cccc(OS(=O)(=O)O)c3)C2=O)cn1	–	Sprague-Dawley rat, male	oral, 100 mg/kg of parent drug, 4 h	–	plasma concentration	6110 ng/mL
Cc1cc(-c2ccc(C(=O)[C@@H]3CCCC[C@H]3C(=O)Nc3cnn4c3C(=O)NCC4)cc2)[nH]n1	–	human, faeces	oral, 200 mg, 168-192 h	reference: dose	recovery of radioactivity per interval	0.39%
COc1cccc(OC)c1-c1cc(C(=O)NC2(C(=O)O)C3CC4CC(C3)CC2C4)nn1-c1ccc(C(=O)N(C)CCOCCN(C)C(=O)[C@H](CCCCNC(=O)[C@H](CC(C)C)NC(=O)C2OC2C(=O)O)NC(=O)CN2CCN(CC(=O)[O-])CCN(CC(=O)[O-])CCN(CC(=O)[O-])CC2)cc1C(C)C.[177Lu+3] (mixture of isomers)	–	mouse, HT-29 xenograft	168 h post injection, biodistribution	reference: tumour over bone uptake	tumour-to-bone ratio	4.05
O=C([O-])CN1CCN(CC(=O)[O-])CCN(C(CO)C(O)CO)CCN(CC(=O)[O-])CC1.[Dy+3] (stereo not shown)	ICP-MS	cynomolgus monkey, feces	1 days post-injection	reference: dose	cumulative fecal excretion	0.04%
CC[C@H](C)[C@@H]1NC(=O)[C@H](Cc2ccc(O)cc2)NC(=O)CCCSC[C@@H](C(=O)N(CC(=O)N[C@@H](CC(C)C)C(=O)NCC(N)=O)Cc2ccc(F)cc2)NC(=O)[C@H](CC(N)=O)NC(=O)[C@H](CCC(N)=O)NC1=O	–	human	intranasal, 300 µg single dose	–	drug-related headache	17%
OC[C@H]1O[C@H](Sc2ccc(Cl)c(Cl)c2)[C@H](O)[C@@H](n2cc(-c3cc(F)c(F)c(F)c3)nn2)[C@H]1O	–	rat, Sprague-Dawley, plasma	1.0 mg/kg, free drug solution	–	t1/2	20 min
O=C(N1CCCCC1)C12CC(c3ccccc3)(C1)C2(Br)Br	metabolic stability	human, liver microsomes	2 µM, 15 min, pH 7.4	–	compound remaining	56%
C=CC(=O)Nc1cc(Nc2nccc(-c3cn(C)c4ccccc34)n2)c(OC)cc1N(C)CCNC	storage stability	human plasma samples	30 d, -80 °C, LLOQ level	reference: nominal concentration	percentage recovery	13.3%
OC1(C(F)(F)F)CCN(c2nc(Nc3ccnc(C(F)(F)F)c3)nc(-c3cccc(C(F)(F)F)n3)n2)C1 (stereo not shown)	–	monkey, both sexes, plasma	oral, 1 mg/kg, day 1	–	Cmax	155 ± 41.3 ng/mL
N#CCNC(=O)c1ccc([C@H]2[C@@H](F)[C@@H](F)C[C@@H](F)[C@H]2F)cc1	hepatocyte stability	cryopreserved mouse hepatocytes	1 µM	–	hepatic clearance	24 mL/min/kg

SMILES	test	system	setting	how to read	endpoint	result
COC1C(c2ccc(Cl)c(Cc3ccc(OC4CCOC4)cc3)c2)OC(CO)C(O)C1O (stereo not shown)	–	mouse plasma	1 µM, 5 h	–	unbound fraction	0.067
COc1cnc2cccc(N3CCc4c(cc(Cn5ccnc5)cc4-c4cn(C)nc4C(F)(F)F)C3=O)c2c1	–	CD-1 mouse, male, plasma	oral, 10 mg/kg	–	AUC extrapolated	0.8%
C=CC(=O)Nc1cc(Nc2nccc(-c3c[nH]c4ccccc34)n2)c(OC)cc1N(C)CCN(C)C	storage stability	human plasma	24 h, -80 °C, high QC level	–	recovery	96.1%
O=C(Nc1ccc([C@H]2[C@@H](F)[C@@H](F)C[C@@H](F)[C@H]2F)cc1)C1CC1(F)F (stereo partly shown)	hepatocyte stability	cryopreserved human hepatocytes	1 µM	–	hepatic clearance	14 mL/min/kg
CCCCCCCOc1ccc(CC[C@](N)(CO)COP(=O)(O)O)cc1C(F)(F)F	–	healthy men, plasma	oral, 0.75 mg once daily, day 21, fed state	–	AUCτ	195 ng·h/mL
COc1cccc(OC)c1-c1cc(C(=O)NC2(C(=O)O)C3CC4CC(C3)CC2C4)nn1-c1ccc(C(=O)N(C)CCOCCOCCN(C)C(=O)[C@H](CCCCNC(=O)[C@H](CC(C)C)NC(=O)C2OC2C(=O)O)NC(=O)CN2CCN(CC(=O)[O-])CCN(CC(=O)[O-])CCN(CC(=O)[O-])CC2)cc1C(C)C.[177Lu+3] (mixture of isomers)	–	mouse, HT-29 xenograft	168 h post injection, biodistribution	reference: tumour over blood uptake	tumour-to-blood ratio	3.57
COc1ccc2c(c1)CN(C(=O)CCN1CCC(Cc3ccccc3)CC1)CCS2	–	dog plasma	750 ng/mL	–	fu	0.072
O=C(NCc1cccc(Cl)c1)c1ccc([C@H]2[C@@H](F)[C@@H](F)C[C@@H](F)[C@H]2F)cc1	hepatocyte stability	cryopreserved human hepatocytes	1 µM	–	hepatic clearance	12 mL/min/kg
Cc1ncsc1-c1ccc(CNC(=O)[C@@H]2C[C@@H](O)CN2C(=O)[C@@H](NC(=O)COCC(C)(COCCOCCOCCNC(=O)C[C@@H]2N=C(c3ccc(Cl)cc3)c3c(sc(C)c3C)-n3c(C)nnc32)COCCOCCOCCNC(=O)C[C@@H]2N=C(c3ccc(Cl)cc3)c3c(sc(C)c3C)-n3c(C)nnc32)C(C)(C)C)cc1	–	male C57BL/6 mice, plasma	subcutaneous, 5 mg/kg, 15 min, 20-fold diluted sample	–	plasma concentration	871 ng/mL and 1240 ng/mL
O=C(Nc1ccc(C2CCCCC2)cc1)C1CC1	liver microsome stability	rat liver microsomes	1 µM	–	hepatic clearance	52 mL/min/kg
C/C(N)=N/C(=N\S(=O)(=O)c1ccc(C(F)(F)F)cc1)N1C[C@H](c2ccccc2)C(c2ccc(Cl)cc2)=N1	–	beagle dog, plasma	oral, 24 mg/kg	–	AUC(0-inf)	28400 ng·h/mL
CCCc1cc2cc(-n3nc(C(F)F)c4c3CC(C)(C)CC4=O)cc(N3CCC(O)CC3)c2c(=O)[nH]1	shake flask	–	24 h, pH 6.8, room temperature	–	aqueous solubility	1.08 µM (≈ 0.538 µg/mL)
CCC1(CC)CC(=O)N(C2c3cc(C(=O)NC4c5ccccc5CC4O)ccc3OC2(C)COC)C(=N)N1 (stereo not shown)	–	human plasma	–	–	unbound fraction	0.12
COc1cc2c(cc1O)CCN1C[C@@H](CC(C)C)[C@@H](O)C[C@H]21	item: non-deuterated analyte	healthy human male, plasma	oral, 25 mg, median, [14C]-tetrabenazine dosed	–	Tlag	0.5 h
CC1(N(CC(=O)O)CC(=O)O)CN(CC(=O)O)CCN(CC(=O)O)C1	pH-potentiometry, item: logK3H	0.15 M NaClO4	25 °C	–	protonation constant (log)	3.86
CC1(C)CC[C@]2(NC(=O)C(C)(F)F)CC[C@]3(C)[C@H](C(=O)C=C4[C@@]5(C)C=C(C#N)C(=O)C(C)(C)[C@@H]5CC[C@]43C)[C@@H]2C1	–	human, plasma	oral, 150 mg, alone, geometric least-squares mean	–	AUC(0-inf)	1380 ng·h/mL
Fc1ccc(OCC2CN(Cc3cn4ccccc4n3)CCC2(F)F)cc1 (stereo not shown)	equilibrium dialysis	mouse plasma	–	–	fu	0.064
O=C(Nc1ccc([C@H]2[C@@H](F)[C@@H](F)C[C@@H](F)[C@H]2F)cc1)C1(N2CCOCC2)CC1	hepatocyte stability	cryopreserved human hepatocytes	1 µM	–	hepatic clearance	14 mL/min/kg
CCCCCCCC(=O)[O][Pt]([Cl])([Cl])[O]C(=O)CCCCCCC.N.N	ICP-MS, item: platinum	nude mice, blood	intravenous, equimolar single dose	–	CL2	0.000156 mg/(ng/mL)/h
O=C(Nc1cnccc1-c1ccc([18F])cc1)c1ccnc(NC(=O)C2CC2)c1	ex vivo gamma counting	GSK-3β transgenic mice, late-stage, lung	intravenous, 120 min, with: tariquidar 15 mg/kg iv	–	mean SUV	0.63
CN1CCC[C@]1(C)/C=C/S(=O)(=O)NC(=O)Nc1c2c(cc3c1C(O)CC3)CCC2 (stereo partly shown)	–	human, plasma	oral, 50 mg twice daily of parent drug, day 14, metabolite of dosed drug	–	AUC(0-inf)	316000 ng·h/mL
O=C(Nc1cnccc1-c1ccc([18F])nc1)c1ccnc(NC(=O)C2CC2)c1	–	FVB/NJ mouse, both sexes, liver	intravenous, 5 min, with: tariquidar 15 mg/kg iv	–	SUV	5.53
COc1ccccc1NC(=O)OC1C(C)C(OC)C=COC2(C)Oc3c(C)c(O)c4c(c3C2=O)C2=NC3(CCN(CC(C)C)CC3)NC2=C(NC(=O)C(C)=CC=CC(C)C(O)C(C)C(O)C1C)C4=O (stereo not shown)	–	CD-1 mouse, plasma	oral, dose not given, efficacy dose	–	AUC	41800 ng·h/mL
C=C1C[C@]2(C(=O)OC)C=C(C(=O)Nc3cccc(C(=O)Nc4ccc(Nc5nccc(-c6cccnc6)n5)c(C)c4)c3)C(=O)[C@H]1C2	–	Wistar rat, male, plasma	10 µM, 10 min	–	compound remaining	8.4% and 8.79%

Repeated from above:
SMILES	test	system	setting	how to read	endpoint	result
CC1(N(CC(=O)O)CC(=O)O)CN(CC(=O)O)CCN(CC(=O)O)C1	pH-potentiometry, item: logK3H	0.15 M NaClO4	25 °C	–	protonation constant (log)	3.86
O=C([O-])CN1CCN(CC(=O)[O-])CCN(C(CO)C(O)CO)CCN(CC(=O)[O-])CC1.[Dy+3] (stereo not shown)	ICP-MS	cynomolgus monkey, feces	1 days post-injection	reference: dose	cumulative fecal excretion	0.04%
CCCCN1C(=O)c2cccc3c(NCCCN4CCOCC4)ccc(c23)C1=O	–	DMF	–	–	fluorescence lifetime	6.2 ns
O=C(CN1CN(c2ccccc2)C2(CCN(C(=O)c3ccc4[nH]ncc4c3)CC2)C1=O)N(CCO)CC(F)(F)F	–	human liver microsomes	–	–	CLint	54 µL/min/mg protein
COc1cccc(OC)c1-c1cc(C(=O)NC2(C(=O)O)C3CC4CC(C3)CC2C4)nn1-c1ccc(C(=O)N(C)CCOCCOCCN(C)C(=O)[C@H](CCCCNC(=O)[C@H](CC(C)C)NC(=O)C2OC2C(=O)O)NC(=O)CN2CCN(CC(=O)[O-])CCN(CC(=O)[O-])CCN(CC(=O)[O-])CC2)cc1C(C)C.[177Lu+3] (mixture of isomers)	–	mouse, HT-29 xenograft	168 h post injection, biodistribution	reference: tumour over blood uptake	tumour-to-blood ratio	3.57
CCCc1cc2cc(-n3nc(C(F)F)c4c3CC(C)(C)CC4=O)cc(N3CCC(O)CC3)c2c(=O)[nH]1	shake flask	–	24 h, pH 6.8, room temperature	–	aqueous solubility	1.08 µM (≈ 0.538 µg/mL)
